{"data": "Experimental data of several laboratories", "note": "Numbered parts are unrelated; each lists some results of a single study.", "UniProt Q15418, sequence (whole entry, looked up)": "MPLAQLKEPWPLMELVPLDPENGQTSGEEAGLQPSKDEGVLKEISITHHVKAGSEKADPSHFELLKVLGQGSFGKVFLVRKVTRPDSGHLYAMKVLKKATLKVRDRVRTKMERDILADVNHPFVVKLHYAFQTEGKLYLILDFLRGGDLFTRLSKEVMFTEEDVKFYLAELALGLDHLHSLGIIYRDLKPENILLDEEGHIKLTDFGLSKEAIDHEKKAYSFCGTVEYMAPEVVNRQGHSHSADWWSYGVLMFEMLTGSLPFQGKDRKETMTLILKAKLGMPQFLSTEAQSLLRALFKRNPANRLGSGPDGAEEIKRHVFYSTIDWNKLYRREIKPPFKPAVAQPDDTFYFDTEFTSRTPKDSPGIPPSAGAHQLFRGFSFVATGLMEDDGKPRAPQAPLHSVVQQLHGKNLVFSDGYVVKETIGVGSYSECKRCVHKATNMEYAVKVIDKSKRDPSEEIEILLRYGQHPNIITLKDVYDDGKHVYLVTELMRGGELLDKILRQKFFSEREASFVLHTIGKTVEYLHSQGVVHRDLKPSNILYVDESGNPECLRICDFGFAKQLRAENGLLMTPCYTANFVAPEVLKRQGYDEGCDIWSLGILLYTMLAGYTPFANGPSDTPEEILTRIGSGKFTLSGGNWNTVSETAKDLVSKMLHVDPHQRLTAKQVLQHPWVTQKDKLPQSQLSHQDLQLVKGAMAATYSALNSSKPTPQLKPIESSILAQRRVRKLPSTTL", "UniProt P68400, sequence (whole entry, looked up)": "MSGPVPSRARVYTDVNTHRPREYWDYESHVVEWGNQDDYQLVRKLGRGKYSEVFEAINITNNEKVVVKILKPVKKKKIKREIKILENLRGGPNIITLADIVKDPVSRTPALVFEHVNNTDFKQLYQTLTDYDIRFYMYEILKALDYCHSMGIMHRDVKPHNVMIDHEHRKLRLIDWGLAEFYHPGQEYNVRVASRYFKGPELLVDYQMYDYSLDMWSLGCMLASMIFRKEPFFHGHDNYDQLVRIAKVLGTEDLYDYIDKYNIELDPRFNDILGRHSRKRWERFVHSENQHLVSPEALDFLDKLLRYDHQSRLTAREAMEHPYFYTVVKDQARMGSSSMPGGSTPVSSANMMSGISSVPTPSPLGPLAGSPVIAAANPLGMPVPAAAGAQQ", "UniProt Q9NYY3, sequence (whole entry, looked up)": "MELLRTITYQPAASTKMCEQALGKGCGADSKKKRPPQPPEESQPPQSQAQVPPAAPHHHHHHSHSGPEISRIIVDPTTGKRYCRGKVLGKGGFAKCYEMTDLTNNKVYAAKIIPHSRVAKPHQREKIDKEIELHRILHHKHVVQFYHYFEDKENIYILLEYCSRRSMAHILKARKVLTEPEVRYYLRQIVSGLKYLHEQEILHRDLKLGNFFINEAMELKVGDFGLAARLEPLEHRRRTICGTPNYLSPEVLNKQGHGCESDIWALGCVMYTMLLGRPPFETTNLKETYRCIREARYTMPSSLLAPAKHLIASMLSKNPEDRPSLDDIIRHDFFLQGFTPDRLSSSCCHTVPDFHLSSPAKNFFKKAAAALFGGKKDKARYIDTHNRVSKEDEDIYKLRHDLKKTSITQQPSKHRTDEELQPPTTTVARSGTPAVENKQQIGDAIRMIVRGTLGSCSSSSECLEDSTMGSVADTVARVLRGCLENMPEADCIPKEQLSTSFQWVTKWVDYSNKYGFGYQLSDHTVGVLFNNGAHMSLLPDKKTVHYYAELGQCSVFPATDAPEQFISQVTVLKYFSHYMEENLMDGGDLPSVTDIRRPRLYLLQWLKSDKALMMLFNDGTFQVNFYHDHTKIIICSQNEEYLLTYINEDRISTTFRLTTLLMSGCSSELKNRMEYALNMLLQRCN", "UniProt Q9P0L2, sequence (whole entry, looked up)": "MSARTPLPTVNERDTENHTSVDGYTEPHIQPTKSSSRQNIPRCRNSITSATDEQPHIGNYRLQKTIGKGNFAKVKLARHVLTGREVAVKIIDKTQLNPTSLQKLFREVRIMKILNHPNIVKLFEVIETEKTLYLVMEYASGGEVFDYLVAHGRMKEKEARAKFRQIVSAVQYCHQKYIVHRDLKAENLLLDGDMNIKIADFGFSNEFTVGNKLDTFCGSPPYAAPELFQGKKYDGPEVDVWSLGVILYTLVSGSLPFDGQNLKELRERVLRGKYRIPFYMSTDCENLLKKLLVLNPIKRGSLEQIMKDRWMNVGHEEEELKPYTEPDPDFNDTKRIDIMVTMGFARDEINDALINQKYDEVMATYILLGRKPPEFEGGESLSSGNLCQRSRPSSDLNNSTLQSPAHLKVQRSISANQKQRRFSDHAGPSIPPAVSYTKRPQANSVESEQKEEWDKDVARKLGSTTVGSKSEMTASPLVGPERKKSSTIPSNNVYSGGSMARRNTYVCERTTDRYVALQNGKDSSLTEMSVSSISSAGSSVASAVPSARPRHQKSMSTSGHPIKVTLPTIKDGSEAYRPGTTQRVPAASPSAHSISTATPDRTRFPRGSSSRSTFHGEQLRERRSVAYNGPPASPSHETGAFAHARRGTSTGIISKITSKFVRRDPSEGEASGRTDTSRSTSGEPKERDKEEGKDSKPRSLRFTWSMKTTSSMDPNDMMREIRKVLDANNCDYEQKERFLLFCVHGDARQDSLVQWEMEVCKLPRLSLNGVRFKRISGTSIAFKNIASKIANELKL", "UniProt P52564, sequence (whole entry, looked up)": "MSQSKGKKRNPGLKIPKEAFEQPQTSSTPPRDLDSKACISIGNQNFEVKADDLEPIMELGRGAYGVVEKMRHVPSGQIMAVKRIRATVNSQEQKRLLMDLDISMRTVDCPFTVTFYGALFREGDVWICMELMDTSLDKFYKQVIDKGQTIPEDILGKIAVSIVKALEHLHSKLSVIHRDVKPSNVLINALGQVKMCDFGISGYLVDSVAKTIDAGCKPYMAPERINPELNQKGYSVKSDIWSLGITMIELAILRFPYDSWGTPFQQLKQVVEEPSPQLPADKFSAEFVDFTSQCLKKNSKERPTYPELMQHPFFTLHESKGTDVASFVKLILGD", "UniProt Q15835, sequence (whole entry, looked up)": "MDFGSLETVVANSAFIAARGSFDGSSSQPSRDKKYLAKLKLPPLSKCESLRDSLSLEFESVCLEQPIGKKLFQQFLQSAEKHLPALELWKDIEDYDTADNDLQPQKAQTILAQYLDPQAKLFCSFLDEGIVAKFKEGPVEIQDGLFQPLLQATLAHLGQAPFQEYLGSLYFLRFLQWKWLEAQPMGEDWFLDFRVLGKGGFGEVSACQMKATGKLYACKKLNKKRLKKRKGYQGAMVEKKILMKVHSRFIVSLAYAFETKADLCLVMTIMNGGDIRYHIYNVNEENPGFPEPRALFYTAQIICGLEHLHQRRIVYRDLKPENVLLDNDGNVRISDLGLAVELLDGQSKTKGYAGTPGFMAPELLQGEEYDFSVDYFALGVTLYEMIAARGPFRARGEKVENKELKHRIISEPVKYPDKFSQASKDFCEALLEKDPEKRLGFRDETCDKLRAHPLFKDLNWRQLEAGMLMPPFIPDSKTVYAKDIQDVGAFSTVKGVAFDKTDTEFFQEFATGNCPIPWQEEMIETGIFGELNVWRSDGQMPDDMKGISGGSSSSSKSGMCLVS", "UniProt Q9Y2K2, sequence (whole entry, looked up)": "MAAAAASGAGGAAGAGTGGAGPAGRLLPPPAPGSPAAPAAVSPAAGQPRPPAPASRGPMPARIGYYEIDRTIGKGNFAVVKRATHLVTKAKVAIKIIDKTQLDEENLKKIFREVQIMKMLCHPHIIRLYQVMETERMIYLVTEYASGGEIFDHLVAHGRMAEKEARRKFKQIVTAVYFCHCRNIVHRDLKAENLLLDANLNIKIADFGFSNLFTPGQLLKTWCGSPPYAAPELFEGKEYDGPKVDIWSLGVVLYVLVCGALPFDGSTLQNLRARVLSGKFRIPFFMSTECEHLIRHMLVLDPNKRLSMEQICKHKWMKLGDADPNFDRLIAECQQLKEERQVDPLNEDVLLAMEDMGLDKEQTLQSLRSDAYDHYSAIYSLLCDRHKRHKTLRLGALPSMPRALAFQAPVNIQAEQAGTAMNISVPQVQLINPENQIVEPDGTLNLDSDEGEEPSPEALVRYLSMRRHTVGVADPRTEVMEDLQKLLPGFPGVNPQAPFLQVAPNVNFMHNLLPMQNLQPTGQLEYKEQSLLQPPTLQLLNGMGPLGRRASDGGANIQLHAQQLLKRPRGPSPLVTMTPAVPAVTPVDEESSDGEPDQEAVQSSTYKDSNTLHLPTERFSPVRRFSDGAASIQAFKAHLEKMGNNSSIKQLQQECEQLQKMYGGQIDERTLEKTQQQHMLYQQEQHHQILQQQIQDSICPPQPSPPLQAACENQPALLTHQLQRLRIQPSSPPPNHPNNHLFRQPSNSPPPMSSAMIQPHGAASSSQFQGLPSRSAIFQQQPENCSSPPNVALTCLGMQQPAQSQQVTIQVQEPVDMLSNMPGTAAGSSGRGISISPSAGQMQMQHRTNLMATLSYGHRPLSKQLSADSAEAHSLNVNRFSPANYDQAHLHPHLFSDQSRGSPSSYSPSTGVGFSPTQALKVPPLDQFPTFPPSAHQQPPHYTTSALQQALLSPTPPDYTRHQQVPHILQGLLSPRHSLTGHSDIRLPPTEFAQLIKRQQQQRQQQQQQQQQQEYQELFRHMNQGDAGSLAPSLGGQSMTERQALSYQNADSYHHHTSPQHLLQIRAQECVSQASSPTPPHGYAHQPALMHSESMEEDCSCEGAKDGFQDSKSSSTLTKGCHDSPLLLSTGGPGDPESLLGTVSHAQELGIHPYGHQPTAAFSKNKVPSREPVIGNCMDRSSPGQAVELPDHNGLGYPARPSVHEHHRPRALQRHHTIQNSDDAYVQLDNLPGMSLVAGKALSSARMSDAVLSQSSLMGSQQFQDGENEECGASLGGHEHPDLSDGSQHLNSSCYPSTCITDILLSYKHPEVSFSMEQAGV"}
{"data": "Set 1", "Structure (SMILES)": "CC(=O)N[C@@H](Cc1c[nH]c2ccccc12)C(=O)N[C@@H](CCC(=O)C=[N+]=[N-])C(=O)OC(C)C", "dose": "dose not given", "relative to": "vehicle"}
{"test": "metabolomics, refers to: S-adenosylhomocysteine", "system": "mouse, EL4 tumour", "fold change": 0.441}
{"test": "metabolomics, refers to: imidazole lactate", "system": "mouse, EL4 tumour", "fold change": 0.457}
{"test": "refers to: 6-phosphogluconate", "system": "mouse, EL4 tumour-bearing, EL4 tumour", "fold change": 2.04}
{"test": "refers to: mesaconate", "system": "mouse, EL4 tumour, tumour", "fold change": 5.81}
{"test": "metabolomics, refers to: N2,N2-dimethylguanosine", "system": "mouse, EL4 tumour", "fold change": 0.425}
{"test": "refers to: creatinine", "system": "mouse, EL4 tumour-bearing, EL4 tumour", "fold change": 2.25}
{"test": "refers to: carnosine", "system": "mouse, EL4 tumour-bearing, EL4 tumour", "fold change": 4.8}
{"test": "refers to: arabonate/xylonate", "system": "mouse, EL4 tumour-bearing, EL4 tumour", "fold change": 2.64}
{"test": "refers to: hippurate", "system": "mouse, EL4 tumour-bearing, EL4 tumour", "fold change": 2.08}
{"data": "Set 2", "SMILES": "O=C(NCc1ncc(C(F)(F)F)cc1Cl)c1ccc2c(c1)C1(CCS(=O)(=O)CC1)[C@@H](C1CC1)N2S(=O)(=O)c1ccc(F)cc1", "tested at": "1 µM"}
{"target": "Tyrosine-protein kinase Yes (YES1, Homo sapiens, UniProt P07947)", "test": "cell-free assay, competition with immobilised ligand", "remaining binding [%]": 93}
{"target": "Tyrosine-protein kinase ABL1, phosphorylated (ABL1, Homo sapiens, UniProt P00519, T315I)", "test": "cell-free assay, competition with immobilised ligand", "remaining binding [%]": 84}
{"target": "Serine/threonine-protein kinase MARK1 (MARK1, Homo sapiens, UniProt Q9P0L2)", "test": "cell-free assay, competition with immobilised ligand", "remaining binding [%]": 100}
{"target": "Fibroblast growth factor receptor 2 (FGFR2, Homo sapiens, UniProt P21802)", "test": "cell-free assay, competition with immobilised ligand", "remaining binding [%]": 98}
{"target": "Serine/threonine-protein kinase 32A (STK32A, Homo sapiens, UniProt Q8WU08)", "test": "cell-free assay, competition with immobilised ligand", "remaining binding [%]": 99}
{"target": "Tyrosine-protein kinase ABL1, phosphorylated (ABL1, Homo sapiens, UniProt P00519, F317I)", "test": "binding", "remaining binding [%]": 80}
{"target": "Mitogen-activated protein kinase kinase kinase 7 (MAP3K7, Homo sapiens, UniProt O43318)", "test": "cell-free assay, competition with immobilised ligand", "remaining binding [%]": 63}
{"target": "Tyrosine-protein kinase receptor TYRO3 (TYRO3, Homo sapiens, UniProt Q06418)", "test": "cell-free assay, competition with immobilised ligand", "remaining binding [%]": 84}
{"target": "Serine/threonine-protein kinase SIK3 (SIK3, Homo sapiens, UniProt Q9Y2K2)", "test": "cell-free assay, competition with immobilised ligand", "remaining binding [%]": 72}
{"target": "Ribosomal protein S6 kinase alpha-1, N-terminal kinase domain (RPS6KA1, Homo sapiens, UniProt Q15418)", "test": "cell-free assay, competition with immobilised ligand", "remaining binding [%]": 89}
{"target": "Rhodopsin kinase GRK1 (GRK1, Homo sapiens, UniProt Q15835)", "test": "cell-free assay, competition with immobilised ligand", "remaining binding [%]": 79}
{"data": "Set 3", "Compound": "Cc1ccc(S(=O)(=O)/C=C/C#N)cc1", "read-out": "enzyme activity", "action": "inhibitor", "tested at": "0.5 µM", "relative to": "control"}
{"target": "Protein kinase C iota type (PRKCI, Homo sapiens, UniProt P41743)", "remaining activity": "90.3%"}
{"target": "MAP kinase-interacting serine/threonine-protein kinase 2 (MKNK2, Homo sapiens, UniProt Q9HBH9)", "remaining activity": "119%"}
{"target": "Mast/stem cell growth factor receptor Kit (KIT, Homo sapiens, UniProt P10721)", "remaining activity": "102%"}
{"target": "Serine/threonine-protein kinase PLK2 (PLK2, Homo sapiens, UniProt Q9NYY3)", "remaining activity": "103%"}
{"target": "Mitogen-activated protein kinase kinase kinase 10 (MAP3K10, Homo sapiens, UniProt Q02779)", "remaining activity": "105%"}
{"target": "Dual specificity mitogen-activated protein kinase kinase 6 (MAP2K6, Homo sapiens, UniProt P52564)", "remaining activity": "98.4%"}
{"target": "Serine/threonine-protein kinase Nek4 (NEK4, Homo sapiens, UniProt P51957)", "remaining activity": "94.3%"}
{"target": "Interleukin-1 receptor-associated kinase 4 (IRAK4, Homo sapiens, UniProt Q9NWZ3)", "remaining activity": "161%"}
{"target": "cGMP-dependent protein kinase 1 (PRKG1, Homo sapiens, UniProt Q13976)", "remaining activity": "96.7%"}
{"target": "Ephrin type-A receptor 5 (EPHA5, Homo sapiens, UniProt P54756)", "remaining activity": "111%"}
{"target": "Leucine-rich repeat serine/threonine-protein kinase 2 (LRRK2, Homo sapiens, UniProt Q5S007)", "remaining activity": "115%"}
{"target": "Serine/threonine-protein kinase Chk1 (CHEK1, Homo sapiens, UniProt O14757)", "remaining activity": "97.5%"}
{"target": "Mitogen-activated protein kinase 12 (MAPK12, Homo sapiens, UniProt P53778)", "remaining activity": "90.5%"}
{"target": "Tyrosine-protein kinase BTK (BTK, Homo sapiens, UniProt Q06187)", "remaining activity": "94.4%"}
{"target": "Mitogen-activated protein kinase 13 (MAPK13, Homo sapiens, UniProt O15264)", "remaining activity": "92.2%"}
{"target": "Casein kinase I isoform alpha (CSNK1A1, Homo sapiens, UniProt P48729)", "remaining activity": "95.6%"}
{"target": "Casein kinase II subunit alpha (CSNK2A1, Homo sapiens, UniProt P68400)", "remaining activity": "94.3%"}
{"target": "Protein kinase C delta type (PRKCD, Homo sapiens, UniProt Q05655)", "remaining activity": "95.6%"}
{"target": "Serine/threonine-protein kinase WNK2 (WNK2, Homo sapiens, UniProt Q9Y3S1)", "remaining activity": "124%"}
{"target": "Tyrosine-protein kinase Lyn (LYN, Homo sapiens, UniProt P07948)", "remaining activity": "101%"}
{"target": "RAC-gamma serine/threonine-protein kinase (AKT3, Homo sapiens, UniProt Q9Y243)", "remaining activity": "93.7%"}
{"target": "Mitogen-activated protein kinase kinase kinase kinase 2 (MAP4K2, Homo sapiens, UniProt Q12851)", "remaining activity": "130%"}
{"target": "Cyclin-dependent kinase 9, with cyclin T1 (CDK9, Homo sapiens, UniProt P50750)", "remaining activity": "98.2%"}
{"data": "Set 4", "target": "Bromodomain-containing protein 4, BD1 (BRD4, Homo sapiens, UniProt O60885)", "read-out": "acetyl-histone H4 peptide binding", "technique": "AlphaScreen displacement", "tested at": "50 µM"}
{"SMILES": "CC(=O)O.Cn1cc(C2=C(c3cn(CCCN)c4ccccc34)C(=O)NC2=O)c2ccccc21", "inhibition": "93.8%"}
{"SMILES": "CC(C)(C)n1nc(-c2cccc3ccccc23)c2c(N)ncnc21", "inhibition": "10.8%"}
{"SMILES": "NC(=O)c1ccsc1NC(=O)CSc1nnc(-c2ccco2)n1-c1ccccc1", "inhibition": "23.5%"}
{"SMILES": "Cc1c(-c2ccccc2)sc2nc[nH]c(=O)c12", "inhibition": "7.8%"}
{"SMILES": "Fc1cccc(-c2nnc3ccc(SCc4cccnc4)nn23)c1", "inhibition": "-5.1%"}
{"SMILES": "O=C(O)c1cc(N(Cc2ccccc2O)Cc2cc(O)ccc2O)ccc1O", "inhibition": "30.7%"}
{"SMILES": "N#CC(=Cc1ccc(F)cc1)c1nc2ccccc2s1", "inhibition": "14.7%"}
{"SMILES": "CC(C)n1cnc2c(NCc3ccccc3O)nc(NCCCO)nc21", "inhibition": "11.9%"}
{"SMILES": "O=C1Cc2c([nH]c3ccc([N+](=O)[O-])cc23)-c2ccccc2N1", "inhibition": "25.6%"}
{"SMILES": "N#Cc1c(NC(=O)c2cccc3ccccc23)sc2c1CCCC2", "inhibition": "16.9%"}
{"SMILES": "CC(C)OC(=O)c1ccc(NC(=O)Nc2ccc(Cl)c(Cl)c2)cc1", "inhibition": "12%"}
{"SMILES": "NCCNc1nc(-c2ccccc2O)nc2ccccc12", "inhibition": "32.9%"}
{"note": "Repeated from above (set 3):"}
{"target": "Dual specificity mitogen-activated protein kinase kinase 6 (MAP2K6, Homo sapiens, UniProt P52564)", "remaining activity": "98.4%"}
{"target": "Serine/threonine-protein kinase Nek4 (NEK4, Homo sapiens, UniProt P51957)", "remaining activity": "94.3%"}
{"target": "Interleukin-1 receptor-associated kinase 4 (IRAK4, Homo sapiens, UniProt Q9NWZ3)", "remaining activity": "161%"}
{"target": "cGMP-dependent protein kinase 1 (PRKG1, Homo sapiens, UniProt Q13976)", "remaining activity": "96.7%"}
{"target": "Ephrin type-A receptor 5 (EPHA5, Homo sapiens, UniProt P54756)", "remaining activity": "111%"}
{"target": "Leucine-rich repeat serine/threonine-protein kinase 2 (LRRK2, Homo sapiens, UniProt Q5S007)", "remaining activity": "115%"}
